# Published values pooled from the literature.
# Every numbered part comes from another study and shows a few of its results, in no order. Substitutions count along the parent as printed.

# Sample 1
# Target: Interferon regulatory factor 3, full length, phosphomimetic (IRF3, Homo sapiens, UniProt Q14653, residues 1-427, S386D/S396D/S398D/S402D/T404D/S405D)
# Method: protein-binding microarray
# Form: double-stranded DNA, one strand shown
# Sample: in vitro
# Tested at: 2540 nM top
# Notes: 60-bp whole probe
# With: salmon DNA 0.4 mg/ml
# Relative to: random background probes
# Reading: higher = stronger binding
# Constant ends, left off below: GCCTAGCAC … GTCTTGATTCGCTTGACGCTGCTG
# Construct (chain): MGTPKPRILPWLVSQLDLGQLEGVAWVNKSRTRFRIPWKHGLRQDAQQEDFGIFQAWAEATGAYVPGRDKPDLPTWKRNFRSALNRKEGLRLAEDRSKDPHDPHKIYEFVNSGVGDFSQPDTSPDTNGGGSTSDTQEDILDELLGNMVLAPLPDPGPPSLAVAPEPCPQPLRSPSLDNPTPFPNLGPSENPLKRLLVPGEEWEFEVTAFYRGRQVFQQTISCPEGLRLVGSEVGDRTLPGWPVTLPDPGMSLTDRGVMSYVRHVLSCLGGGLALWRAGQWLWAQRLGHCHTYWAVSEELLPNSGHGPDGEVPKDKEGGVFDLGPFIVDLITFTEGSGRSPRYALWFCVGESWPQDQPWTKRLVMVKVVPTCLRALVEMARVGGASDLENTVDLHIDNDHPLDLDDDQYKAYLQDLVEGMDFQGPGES
Sequence,fitted relative affinity
GACGAACTGGGGTTTCGAGAAGTGCTA,0.0998 z-score
CCTCAGCTCCCTTTCTCTCTGTGCTAG,1.96 z-score
TTAGGTATCCTTCTCTTTTAGTGCTAG,6.86 z-score
TTAGAACTGGGGTTTCAATTAGTGCTA,-0.288 z-score
TTAGTTTTCCTACTGCTTTAGTGCTAG,3.78 z-score
TTAGATTTCGGGTTTCGGTTAGTGCTA,3.87 z-score
GACGGTGTCGGTTCCGGGACGTGCTAG,3.93 z-score
TTAGATATCGGGCATCGATTAGTGCTA,-0.425 z-score
TTCGGTTTCGACTATCGGTTAGTGCTA,3.92 z-score
TACTAGAGTAAAACCCTGGCGTGCTAG,-0.484 z-score
TTAGGTATCGGGTTTCGGTTAGTGCTA,3.95 z-score
TTAGGACTGGGGTATCGTTTAGTGCTA,-0.193 z-score
TTAGATTTCACTTTCGATTAGTGCTAG,5.49 z-score
TTAAATTTCAGTCTCGATTAGTGCTAG,2.57 z-score
CGCGCTTCTCGGCGGCGAAGGTGCTAG,-0.0911 z-score
TCATTTTTCCCCTGCACACTGTGCTAG,1.9 z-score
TTAGATTACAGTTCCGATTAGTGCTAG,1.81 z-score
TTAGGTTTCGTTTCCCTTTAGTGCTAG,9.64 z-score
GACGATTTCGGGTTTCGATACGTGCTA,3.8 z-score
GTCGATATCAGTCTCGAGACGTGCTAG,1.91 z-score
TTATATTTCGGGTTTCGATTAGTGCTA,2.75 z-score
TTAGGTATCCGTATCGGTTAGTGCTAG,4.88 z-score
ATGCATGTGCTGTCTCAGAGTGTGCTA,0.00532 z-score
GACGATTTAAGTCTCGAGACGTGCTAG,0.509 z-score
TTAGAACAGAGTCTCGATTAGTGCTAG,-0.22 z-score

# Sample 2
# Target: CCND2, cyclin fold, Cln2 fusion (human)
# Method: yeast growth competition, sequencing
# Sample: yeast
# Notes: weak parent motif
# Relative to: not given
# Reading: higher = stronger binding
# Starting sequence: E2F1 docking peptide (human); PPVKRRLDLETDH; partner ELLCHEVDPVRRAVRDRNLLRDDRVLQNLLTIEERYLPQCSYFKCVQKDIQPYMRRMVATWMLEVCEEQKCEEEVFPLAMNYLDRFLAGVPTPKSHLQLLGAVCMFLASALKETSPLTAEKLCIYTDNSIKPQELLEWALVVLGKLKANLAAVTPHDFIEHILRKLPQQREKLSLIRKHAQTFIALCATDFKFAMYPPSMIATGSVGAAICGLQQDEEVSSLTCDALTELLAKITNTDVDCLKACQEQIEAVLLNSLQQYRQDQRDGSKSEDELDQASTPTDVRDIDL
Variant,normalised enrichment score
E10S,0.183
D12M,0.291
L7W,0.391
E10P,-0.0279
E10Y,-0.145
V3Q,0.523
R5V,0.256
T11L,0.481
K4N,-0.0691
H13I,0.31
E10M,0.301
H13N,0.312
P2L,0.0237
K4G,0.286
D12P,0.598
P1D,-0.258
T11M,-0.0445
V3L,-0.394
V3F,0.266
E10N,0.36
V3P,0.157
D8Q,0.243
E10I,0.409
K4S,0.281
L7E,-0.0235

# Sample 3
# Target: Probable WRKY transcription factor 11, DNA-binding domain (WRKY11, Arabidopsis thaliana, UniProt Q9SV15, residues 228-325)
# Method: DNA-protein interaction ELISA
# Form: double-stranded DNA, one strand shown
# Sample: in vitro, bacterial lysate
# Tested at: not given
# Notes: whole dsDNA probe, crude lysate protein
# Relative to: highest signal in screen
# Reading: higher = stronger binding
# Construct (chain): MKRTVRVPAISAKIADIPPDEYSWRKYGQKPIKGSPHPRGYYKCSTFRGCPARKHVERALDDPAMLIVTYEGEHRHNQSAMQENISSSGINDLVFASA
Sequence,relative absorbance
AAAAAACCGAGTGTTGCCAGTTGCAGAAAA,17 % of maximum
AAAAAATATATTTTCAGCTTTAATCTAAAA,17.6 % of maximum
AAAAAAGTGCGTTCACGCTTGTATCTAAAA,16.4 % of maximum
AAAAAAAGGTTTGGGCTTCACGTTATAAAA,18.4 % of maximum
AAAAAAAAATCGAATTTGGACTTCCGAAAA,21.6 % of maximum
AAAAAAGCGGTAGATGCGCAACTGTGAAAA,14.7 % of maximum
AAAAAAGCTTCGCGCCAGCGGGAAAA,18.7 % of maximum
AAAAAAGGGTCGCTGTGAGCTCATGAAAAA,14.1 % of maximum
AAAAAACCGTCTTATCTCTCGTCCCTAAAA,13.8 % of maximum
AAAAAATTAGTCCTGATTCAATCTTCAAAA,19.6 % of maximum
AAAAAAGGGTTTGTCGGGAATTGCCGAAAA,15 % of maximum
AAAAAAAGTTACCAGTACGCGTCGGGAAAA,15.6 % of maximum
AAAAAAGCGCGCCCGCACTGTTAATAAAAA,16.1 % of maximum
AAAAAAAAGTGCCAACGTTCAAGAAAAA,8.93 % of maximum
AAAAAATGCCCATGTGCACCCGTACGAAAA,14.4 % of maximum
AAAAAAGCTCCCGTCTCTTAGTTCTAAAAA,17.6 % of maximum
AAAAAATCCCTGCTCCCCTGGTTCCTAAAA,10.1 % of maximum
AAAAAATAGGCGTTATGGCTAACACCAAAA,17.6 % of maximum
AAAAAATATCGGGCACGGTCTTGTCTAAAA,15.8 % of maximum
AAAAAATCGTAAATGCCCATAGCCGTAAAA,13.8 % of maximum
AAAAAACGCTCCGTTTTTGCAATGCGAAAA,16.1 % of maximum
AAAAAATTACTCCTAGCCCTCATTCAAAAA,19.3 % of maximum
AAAAAATTCTTACTTTTGTCTTTACTAAAA,19.6 % of maximum
AAAAAATTCTTAGTTAGATTCACCTCAAAA,13.8 % of maximum

# Sample 4
# Target: RNA binding protein fox-1 homolog 2, RRM domain, GST-SBP tag (RBFOX2, Homo sapiens, UniProt O43251-10, residues 100-194)
# Method: RNA Bind-n-Seq
# Form: RNA
# Sample: in vitro
# Tested at: 365 nM
# Notes: natural RNA segment, single round, ends assumed
# Relative to: no-protein control
# Reading: higher = stronger binding
# Constant ends, left off below: GGGAGUUCUACAGUCCGACGAUC … UGGAAUUCUCGGGUGCCAA
# Construct (chain): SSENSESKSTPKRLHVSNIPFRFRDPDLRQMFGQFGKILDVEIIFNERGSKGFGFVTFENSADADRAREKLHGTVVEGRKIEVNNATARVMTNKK
Sequence,RBNS enrichment (R)
AUACCCUACUUUUUCUGUACCUAAAUUUUCUUAAUAAAAUUUAGUAUAGCACUACAUUCUUUUUUAAGUGAUGUAAACUUUAGUUUCUUUAGCCCCUUCAUUUUGAAUAU,1.5
UGUUGGGAAACUGGAUUCAGUGGGAUCUACAAGGAAUGUCAUUUUUGUGCAUCCUACAGUGAGGAGUAACUGAUCAGGUGUCUAUAACAUUUUUCAUUCUCUCUGGAAAC,0.326
UGCCUCGGCCUUUUGUCCAGCUCAGCCUGGGAUGUCUAUAGGGUUGAGGGUUUUAGACAAUCUCUAGGAAAGGGAUACAAAACAGAUCCGAUGGAAGAAACCUACUUCCC,0.315
UCUGUUACAUACUUUUUUUAACCUGUUUUGUUUUAUCAUAUAUGCAUUAAAAGUAUUAUCUUUAUCAACAUUUGCUGCUACUGUGUUAACAUUUUUGUUUUGCUUGCCAU,1.94
AAGUUAGAGUUGUGGAAAGCAGUAUUGUUUUCUUCUCUAGUGAUUGUUACCCUACACAUUUCAUGGAAGCAUCUUCACAAAAUAUCAGACACAGUGGAAGGGGGAAAAAA,0.835
AAAAAACCACAGUUGUAAUUUAAACUGCUUGAUAUAAAAAGAGGUAUCAUAGCAGGGAAAACACACUAAUUUUCAUACAGUAGAGGUAUUGAAAACUGAAAAUGGGAAGG,0.491
AGUGUUUCUGGCUCUCAGCCCUAAGGCCCUGCAAACUCUAACUUAUUUCCCAAUUAGUCUGUAUCUAUACUUGGGCUCUGUAUGUGAAUGAAGGUUGGUCACCCAUCCAG,2.46
CACAAGACCACACACACAGCCCUUACCCUCCUCAGGACUACCGAACCUUCUGGCACACCUUGUACAGAGUUUUGGGGUUCACACCCCAAAAUGACCCAACGAUGUCCACA,0.361
UGACAACCUGGCAUAAAGGAGUCAAUUCUUAUGAAAGAGACACAAGGGCCUUAUGGCCAGGGUUUCUUGGGACAAGACUCUCACCAGCACAUCACACACGUUCUCCUUGG,0.748
UUUGUAUGUUUAGUUUUGUGUCUCGUAACAGUGUUCACAUUUGUGAUUCUGAUGUCAGUAUUGUGUCACCUGAGCGGGAUGAUUACCUGAGUACCAUAGGAACUUUGUAC,0.321
GUGCAAUGUAUGAAAAUCAAGUGUUAGGAAAUUUCAUGGUUUCACCUAUAACCUUUAUUUUAGAAUUGAACUAUGAUUAGAUUGUAUCUAAACCUGAAGUAUAAUUAUAU,0.52
UGGGCACUCGGCAUUUUGACACAUGUCCUGUCAAAAGGCCAGAGUCCCCAGUGUCCCCUCCCCUCCAUCUCUCUUCCCCAUAGACCCCAUAACCCCAGACCAAAGAGGUU,0.514

# Some of these lines once more (sample 1):
Sequence,fitted relative affinity
TTAGGTATCCTTCTCTTTTAGTGCTAG,6.86 z-score
TTAGAACTGGGGTTTCAATTAGTGCTA,-0.288 z-score
TTAGTTTTCCTACTGCTTTAGTGCTAG,3.78 z-score
TTAGATTTCGGGTTTCGGTTAGTGCTA,3.87 z-score
GACGGTGTCGGTTCCGGGACGTGCTAG,3.93 z-score
TTAGATATCGGGCATCGATTAGTGCTA,-0.425 z-score
TTCGGTTTCGACTATCGGTTAGTGCTA,3.92 z-score
TACTAGAGTAAAACCCTGGCGTGCTAG,-0.484 z-score
TTAGGTATCGGGTTTCGGTTAGTGCTA,3.95 z-score
TTAGGACTGGGGTATCGTTTAGTGCTA,-0.193 z-score
TTAGATTTCACTTTCGATTAGTGCTAG,5.49 z-score
TTAAATTTCAGTCTCGATTAGTGCTAG,2.57 z-score
CGCGCTTCTCGGCGGCGAAGGTGCTAG,-0.0911 z-score
